Assay results gathered from unrelated publications.
Every numbered part comes from another study and shows a few of its results, in no order. Changes are numbered by the printed parent chain.

Sample 1
Target: Histone acetyltransferase KAT6A, both winged helices, GST fusion (KAT6A, Homo sapiens, UniProt Q92794, residues 1-181)
Technique: protein binding microarray
Form: double-stranded DNA, one strand shown
Matrix: in vitro
Tested at: not given
Setting: 8-mer, flanks averaged, mean of 2 arrays, mostly near background
Relative to: not given
Direction: higher = stronger binding
Residues (chain): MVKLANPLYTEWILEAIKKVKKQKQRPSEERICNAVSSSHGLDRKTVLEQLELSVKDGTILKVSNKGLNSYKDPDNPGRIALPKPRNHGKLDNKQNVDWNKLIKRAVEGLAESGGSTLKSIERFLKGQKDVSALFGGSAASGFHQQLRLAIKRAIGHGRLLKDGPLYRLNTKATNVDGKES
The E-score of `CGTGCGCC` is reported as 0.229.
`TAGAACAA` has an E-score of -0.131.
For `AGATAGAT`, the E-score was -0.116.
For `ATCACTAG`, the E-score was -0.115.
`GGGGTCGA` has an E-score of -0.127.
With `GAATAAAC` the E-score was -0.0554.
With `ACACCACA` the E-score was -0.0322.
`AGTAGTTG` has an E-score of -0.0535.
`AGGGCTAC` gave an E-score of -0.132.
`TAACGGGA` gave an E-score of 0.213.
The E-score of `CCATGTAG` is reported as -0.0431.
`AGAGATAA` gave an E-score of -0.159.
With `ACCGGCGC` the E-score was 0.348.
`AGTATTAA` gave an E-score of 0.0311.
`GCCCGAAA` has an E-score of -0.0286.
With `AGTGCGAG` the E-score was -0.0616.
`GAGCCTTA` has an E-score of -0.15.
`GCTCCATA` has an E-score of -0.107.
`AGGGGACG` has an E-score of -0.132.
The E-score of `CGCAGGTA` is reported as 0.0402.
`GATTGGGC` gave an E-score of -0.0944.
`ACCCTTAG` gave an E-score of -0.271.
For `ACCATGGT`, the E-score was -0.0809.
`CAGAAGAG` has an E-score of -0.197.

Sample 2
Target: ABI1, truncated, D143A, DHFR fusion (Arabidopsis thaliana)
Technique: DHFR PCA, deep sequencing
Matrix: yeast
Setting: methotrexate growth selection, single substitutions
With: (+)-ABA 1.4 µM
Relative to: wild-type fitted maximum
Direction: higher = stronger binding
Starting sequence: PYL1, truncated, DHFR fusion (Arabidopsis thaliana); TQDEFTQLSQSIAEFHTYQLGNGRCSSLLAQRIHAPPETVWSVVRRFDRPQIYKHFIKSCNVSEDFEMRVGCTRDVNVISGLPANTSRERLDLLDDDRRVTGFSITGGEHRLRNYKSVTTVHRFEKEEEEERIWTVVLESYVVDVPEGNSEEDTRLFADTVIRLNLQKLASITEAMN; partner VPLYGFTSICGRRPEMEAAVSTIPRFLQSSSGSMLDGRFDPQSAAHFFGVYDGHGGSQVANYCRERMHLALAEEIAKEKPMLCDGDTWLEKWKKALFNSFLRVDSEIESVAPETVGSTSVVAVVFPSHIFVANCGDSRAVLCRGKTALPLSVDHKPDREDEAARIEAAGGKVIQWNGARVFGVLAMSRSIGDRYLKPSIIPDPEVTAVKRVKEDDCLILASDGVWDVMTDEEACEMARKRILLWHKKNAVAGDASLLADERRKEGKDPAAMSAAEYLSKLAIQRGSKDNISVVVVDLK
For `R132G`, “relative binding score” read 86%.
`V136T`: “relative binding score” 22.1%.
`E4F`: “relative binding score” 11.4%.
`Y18L` — result for “relative binding score”: 0.543%.
`V143D` — result for “relative binding score”: 2.42%.
`E130A` — result for “relative binding score”: 62.5%.
For `D96V`, “relative binding score” read -2.28%.
`T39R` — result for “relative binding score”: 55.8%.
Under “relative binding score”, `E38A` is recorded as 28.2%.
`T86V` — result for “relative binding score”: 36.1%.
Under “relative binding score”, `E109V` is recorded as 22%.
For `G102E`, “relative binding score” read -5.61%.
`F103H`: “relative binding score” 6.95%.
`V40D`: “relative binding score” -12.8%.
`K168Q`: “relative binding score” 46%.
`S117A` — result for “relative binding score”: 24%.
`G107M`: “relative binding score” 3.42%.
`Q2P` — result for “relative binding score”: 70.8%.
Under “relative binding score”, `V121N` is recorded as -12.4%.
`D153R`: “relative binding score” -1.47%.
For `E147Q`, “relative binding score” read 43.2%.
For `E152R`, “relative binding score” read 19%.
`F56V`: “relative binding score” -8.6%.
`V43Q`: “relative binding score” -8.3%.

Sample 3
Target: Sal-like protein 4, full length isoform A (SALL4, Homo sapiens, UniProt Q9UJQ4, residues 1-1053)
UniProt Q9UJQ4, sequence (whole entry, looked up): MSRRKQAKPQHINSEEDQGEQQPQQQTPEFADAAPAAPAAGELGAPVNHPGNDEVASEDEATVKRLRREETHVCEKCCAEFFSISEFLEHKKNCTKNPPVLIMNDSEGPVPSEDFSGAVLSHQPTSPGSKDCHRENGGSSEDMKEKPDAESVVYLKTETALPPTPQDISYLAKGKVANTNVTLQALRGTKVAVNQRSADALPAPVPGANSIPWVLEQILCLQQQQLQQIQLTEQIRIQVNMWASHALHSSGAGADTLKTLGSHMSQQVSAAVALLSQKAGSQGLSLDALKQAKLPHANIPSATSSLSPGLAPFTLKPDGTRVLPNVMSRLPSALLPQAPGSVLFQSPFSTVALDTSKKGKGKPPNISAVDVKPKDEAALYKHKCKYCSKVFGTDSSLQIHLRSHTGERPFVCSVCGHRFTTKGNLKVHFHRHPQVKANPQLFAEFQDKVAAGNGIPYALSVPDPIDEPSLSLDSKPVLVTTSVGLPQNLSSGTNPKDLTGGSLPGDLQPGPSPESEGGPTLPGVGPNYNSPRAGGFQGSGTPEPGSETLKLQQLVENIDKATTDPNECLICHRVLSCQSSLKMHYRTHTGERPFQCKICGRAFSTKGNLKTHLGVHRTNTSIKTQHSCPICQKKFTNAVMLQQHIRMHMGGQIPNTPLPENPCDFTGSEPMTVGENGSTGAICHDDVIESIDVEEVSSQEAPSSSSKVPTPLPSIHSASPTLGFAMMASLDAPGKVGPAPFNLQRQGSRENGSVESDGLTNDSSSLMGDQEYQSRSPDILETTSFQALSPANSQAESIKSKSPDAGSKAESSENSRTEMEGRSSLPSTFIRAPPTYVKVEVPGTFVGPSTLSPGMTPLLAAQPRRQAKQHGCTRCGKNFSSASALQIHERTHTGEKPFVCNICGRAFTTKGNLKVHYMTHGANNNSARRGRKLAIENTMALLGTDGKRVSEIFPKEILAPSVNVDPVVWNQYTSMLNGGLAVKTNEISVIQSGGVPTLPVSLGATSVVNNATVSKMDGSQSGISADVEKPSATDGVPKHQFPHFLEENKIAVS
Technique: universal PBM
Form: double-stranded DNA, one strand shown
Matrix: in vitro
Tested at: 600 nM
Setting: 8-mer, flanks averaged, mean of replicates
Direction: higher = stronger binding
The E-score of `CCTCGTAC` is reported as 0.0243.
The E-score of `AGCAGTGG` is reported as -0.211.
`AATTACGC` gave an E-score of 0.165.
With `GGTCATAC` the E-score was -0.0418.
The E-score of `ACCCATCC` is reported as -0.21.
With `GCCCATAA` the E-score was 0.0675.
The E-score of `CTTTACGA` is reported as 0.118.
The E-score of `AGAACTGC` is reported as -0.156.
The E-score of `CAATCAGC` is reported as -0.0926.
For `GACGTGCC`, the E-score was -0.338.
The E-score of `AGCATAAT` is reported as 0.328.
`CTTGTGAC` gave an E-score of -0.0131.
With `GCCGTCAA` the E-score was -0.245.
`ACACCAAT` gave an E-score of 0.149.
With `CGGAATTC` the E-score was -0.0672.
`AAGATCAT` gave an E-score of 0.168.
The E-score of `AGCTCTAA` is reported as -0.000165.
With `GCGTACAC` the E-score was -0.0471.
For `AATTTACA`, the E-score was 0.33.
`CTGCAGTC` has an E-score of -0.302.
`CGACCGAC` has an E-score of -0.301.
The E-score of `GATCTTCA` is reported as 0.0565.
`AACGTGGC` has an E-score of -0.112.
The E-score of `CTCGGTCC` is reported as -0.321.
`ACTTGTCA` has an E-score of 0.00809.

Sample 4
Target: RING finger protein unkempt homolog, zinc fingers 1-6, GST-SBP tag (UNK, Homo sapiens, UniProt Q9C0B0, residues 30-357)
Technique: RNA Bind-n-Seq
Form: RNA
Matrix: in vitro
Tested at: not given
Setting: RNA with constant flanks, ends assumed
Relative to: input RNA pool
Direction: higher = stronger binding
Target sequence (chain): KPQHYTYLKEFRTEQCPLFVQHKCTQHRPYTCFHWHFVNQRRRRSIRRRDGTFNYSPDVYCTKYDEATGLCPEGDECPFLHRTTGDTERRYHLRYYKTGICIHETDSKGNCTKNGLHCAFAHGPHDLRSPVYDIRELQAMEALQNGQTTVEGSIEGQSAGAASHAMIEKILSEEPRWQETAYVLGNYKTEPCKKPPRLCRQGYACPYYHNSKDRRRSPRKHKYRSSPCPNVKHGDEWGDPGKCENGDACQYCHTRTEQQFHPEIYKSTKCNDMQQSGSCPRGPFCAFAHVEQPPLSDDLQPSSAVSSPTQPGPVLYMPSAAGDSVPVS
The bound/input enrichment of `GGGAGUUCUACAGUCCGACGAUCAAGAUUUGGACCUUGGAGCUGAACCAGGGAGCUAGCAAAAGUAAAGCAGACUUAUAAAAUUACCGCUAUGUGCAGCUGCACAACACAGUCCUUCCACUAGCAGCUGUGUUAAAGUAUUUACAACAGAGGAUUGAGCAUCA` is reported as 1.02 ratio.
`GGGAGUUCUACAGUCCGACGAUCAACAGGACAGCCUGGUGCCCCAUUACACUCUGUAGGAGUUAUGCAAUUCAGAAGUGGAAUUCCGGAAAUCAUUUAUUUUGAUGUGUCAAUAGAGAGAUUUAUUGUCUGUAAAUUUGGAUGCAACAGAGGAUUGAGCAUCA` has a bound/input enrichment of 0.266 ratio.
The bound/input enrichment of `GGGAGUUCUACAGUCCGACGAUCUCUGUCACUCCUCUUAUCUGAGAAGUGACCUUUUAUUUUUAAGAUGACUACAGACCUAUUUUCCGAUAUGUUUUCAGUACAAUUUUGAACAGCAACUUUUUAAUUAAACAUCUUCCAGUGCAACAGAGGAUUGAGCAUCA` is reported as 0.623 ratio.
With `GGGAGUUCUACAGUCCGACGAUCCUCCAUUUCUUCCCAUGCUGUAACCCCAGGCUCCACCAGCUGUUCCCCAGUGAUGUUACCCCGCUUCCCUCUACCGUUGUCUACUGACCAUUUCCACUACAUGCCUUUCCUACCUUCCCUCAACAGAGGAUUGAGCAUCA` the bound/input enrichment was 0.585 ratio.
The bound/input enrichment of `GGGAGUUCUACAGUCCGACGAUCGUGGGAGAUUUGGUACUCAUCAUCCUAGACGAACGCCAUGACAAUUAUGUGUUAUUUACUGUCCGUCCUACUUUAUAUUUUCUACAUUCAGAGUCUCUACCUGCCCUGGAUCUCAAACCACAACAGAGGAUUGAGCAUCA` is reported as 0.458 ratio.
`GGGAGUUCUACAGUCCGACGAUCUAUAAUAAUCAUGAAAUUCGUUCCGGGAAGCACAUUGGUGUCUGCAUCUCAGUUGCCAACAACCGGCUUUUUGUGGGCUCGAUUCCUAAGAGUAAAACCAAGGAGCAGAUUCUUGAGGAACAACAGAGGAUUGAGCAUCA` gave a bound/input enrichment of 0.19 ratio.
`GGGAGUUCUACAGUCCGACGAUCAGUAAGACCAUGAAUUAUGGCAUUUCUUAAAUGAAGCGUUCAAGAAGUGAGAGAAUGUCACCGAAAAUAAAUGAUUUUUAAGUUAUGUCUAUUAAUCUGACUGUAGAUAUAUAUAUUUACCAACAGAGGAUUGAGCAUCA` has a bound/input enrichment of 0.483 ratio.
For `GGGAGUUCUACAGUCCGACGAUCUUUUCCUUCUUCAUGUGACCUAUGAAAAUAAAUGAAUAAUAACUCAAAAAAAGUACUUUGCCGUUUUUGUCUUUCCUUAAGUAAAACUAAUCUUUUCUUUUAAAAAAUUCUUUUAAGGCCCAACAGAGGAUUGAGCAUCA`, the bound/input enrichment was 0.498 ratio.
`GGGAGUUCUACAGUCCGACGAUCCAUUGUAUGUUGAUGAGUUGAUUAAGUCUAACAGAUUCAUCAAGACUCCAUUGCUUUAUUACCGAGACAUUUGAAAAUAUCCAUUAAUGUGAAUAUCACCUGAAUUCAGUCUGUUUGGUGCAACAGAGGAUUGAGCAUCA` gave a bound/input enrichment of 0.175 ratio.
For `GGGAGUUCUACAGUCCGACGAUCAAAGAUCUACUGAGGCAAGGCAGCAAAUUUAGAAGAAAUGUAUCAACACUAUUAACCGAGUCCGGAUUCCAAAUUAAAAAAAAAACUAAAAGAUUGUAUAUCAACAAAGCCAAUAUCUGGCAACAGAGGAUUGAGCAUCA`, the bound/input enrichment was 3.37 ratio.
`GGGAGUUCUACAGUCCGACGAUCCCUCUACUUCAGUACUUUGGUAUCCUUUUGGACCAGGGACAGCUCAACAAAUACGAAUCCUCCGAGCUUUGUAGGCCUGUACUUCAGCAAGGGCGAAAACAGCUUUUGGAGAAAUGGUUACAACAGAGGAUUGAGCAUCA` has a bound/input enrichment of 0.0718 ratio.

Some of these lines once more (sample 2):
For `D96V`, “relative binding score” read -2.28%.
`T39R` — result for “relative binding score”: 55.8%.
Under “relative binding score”, `E38A` is recorded as 28.2%.
`T86V` — result for “relative binding score”: 36.1%.
Under “relative binding score”, `E109V` is recorded as 22%.
For `G102E`, “relative binding score” read -5.61%.
`F103H`: “relative binding score” 6.95%.
`V40D`: “relative binding score” -12.8%.
